# Published values gathered from unrelated publications.
# Lines come from different studies, so protocols differ. Several values in a cell are separate wells, animals, samples, runs or records.
# Organism: Pseudomonas aeruginosa
Compound,assay,test system,setting,scale,endpoint,result
CCCCCCCCCCCCn1nnc(CC(=O)O)n1,elastin-Congo red,PAO1 wild type,"100 µM, 20 h",relative to: DMSO,elastase production,70.9%
CC(CCCOC(=O)CCC[N+](C)(C)C)C1CCC2C3CCC4CC(OC(=O)CCC[N+](C)(C)C)CCC4(C)C3CCC12C (stereo not drawn),"microbial growth, disc diffusion",ATCC27853,"125 µg/disc, 24 h",,inhibition zone,9 mm
COc1c(C)c(OS(=O)(=O)c2ccccc2)c(C)c(OS(=O)(=O)c2ccccc2)c1C(=O)/C=C/c1ccccc1,"microbial killing, broth dilution",ATCC27853,,,MBC,> 5000 µg/mL
CC(C)C1=CC2=CCC3C(C)(C(=O)OCCC[N+](C)(C)C)CCCC3(C)C2CC1 (stereo not drawn),"microbial growth, disc diffusion",ATCC27853,"125 µg/disc, 24 h",,inhibition zone,10 mm
CCCC(=O)C#Cc1ccc(F)c(F)c1,"RT-qPCR, measured: rhlA",biofilm cells,"10 µM, 24 h",relative to: untreated,mRNA level,24%
CN(C)S(=O)(=O)c1ccc(S(=O)(=O)N2CCC(n3c(=O)[nH]c4ccccc43)CC2)cc1,,"CIP 27853 wild type, Bombyx eri larvae",2.78 µg/larva,,bacterial load,4.57 log CFU/larva and 4.28 log CFU/larva and 5 log CFU/larva and 6.44 log CFU/larva
CCCCCC(=O)Oc1c(C)c(OC)c2c(/C=C/c3ccccc3)c(CCCC)c(=O)oc2c1C,"microbial killing, broth dilution",ATCC27853,,,MBC,> 5000 µg/mL
CC[C@H](C)CCCCC(=O)N[C@@H](CCN)C(=O)N[C@H](C(=O)N[C@@H](CCN)C(=O)N[C@H]1CCNC(=O)[C@H]([C@@H](C)O)NC(=O)[C@H](CCN)NC(=O)[C@H](CCN)NC(=O)[C@H](CC(C)C)NC(=O)[C@@H](CC(C)C)NC(=O)[C@H](CCN)NC1=O)[C@@H](C)O,,"BAA-2797, mouse, BALB/c, peritonitis, peritoneal fluid",dose not given,,peritoneal bacterial load,2.45 log CFU and 1.9 log CFU and 1.6 log CFU
O=C(CCCOc1cccc(Br)c1)N[C@H]1CCSC1=O,elastin-Congo red,PAO1 wild type,"100 µM, 20 h",,elastase production,237%

# For quick reference, copied from above:
Compound,assay,test system,setting,scale,endpoint,result
CCCCCCCCCCCCn1nnc(CC(=O)O)n1,elastin-Congo red,PAO1 wild type,"100 µM, 20 h",relative to: DMSO,elastase production,70.9%
